Experimental data of several laboratories.
Every numbered part comes from another study and shows a few of its results, in no order. Values joined by “and” are separate records of one study, mostly repeats; a detail may differ.
Chain of UniProt Q04912 (whole entry, looked up): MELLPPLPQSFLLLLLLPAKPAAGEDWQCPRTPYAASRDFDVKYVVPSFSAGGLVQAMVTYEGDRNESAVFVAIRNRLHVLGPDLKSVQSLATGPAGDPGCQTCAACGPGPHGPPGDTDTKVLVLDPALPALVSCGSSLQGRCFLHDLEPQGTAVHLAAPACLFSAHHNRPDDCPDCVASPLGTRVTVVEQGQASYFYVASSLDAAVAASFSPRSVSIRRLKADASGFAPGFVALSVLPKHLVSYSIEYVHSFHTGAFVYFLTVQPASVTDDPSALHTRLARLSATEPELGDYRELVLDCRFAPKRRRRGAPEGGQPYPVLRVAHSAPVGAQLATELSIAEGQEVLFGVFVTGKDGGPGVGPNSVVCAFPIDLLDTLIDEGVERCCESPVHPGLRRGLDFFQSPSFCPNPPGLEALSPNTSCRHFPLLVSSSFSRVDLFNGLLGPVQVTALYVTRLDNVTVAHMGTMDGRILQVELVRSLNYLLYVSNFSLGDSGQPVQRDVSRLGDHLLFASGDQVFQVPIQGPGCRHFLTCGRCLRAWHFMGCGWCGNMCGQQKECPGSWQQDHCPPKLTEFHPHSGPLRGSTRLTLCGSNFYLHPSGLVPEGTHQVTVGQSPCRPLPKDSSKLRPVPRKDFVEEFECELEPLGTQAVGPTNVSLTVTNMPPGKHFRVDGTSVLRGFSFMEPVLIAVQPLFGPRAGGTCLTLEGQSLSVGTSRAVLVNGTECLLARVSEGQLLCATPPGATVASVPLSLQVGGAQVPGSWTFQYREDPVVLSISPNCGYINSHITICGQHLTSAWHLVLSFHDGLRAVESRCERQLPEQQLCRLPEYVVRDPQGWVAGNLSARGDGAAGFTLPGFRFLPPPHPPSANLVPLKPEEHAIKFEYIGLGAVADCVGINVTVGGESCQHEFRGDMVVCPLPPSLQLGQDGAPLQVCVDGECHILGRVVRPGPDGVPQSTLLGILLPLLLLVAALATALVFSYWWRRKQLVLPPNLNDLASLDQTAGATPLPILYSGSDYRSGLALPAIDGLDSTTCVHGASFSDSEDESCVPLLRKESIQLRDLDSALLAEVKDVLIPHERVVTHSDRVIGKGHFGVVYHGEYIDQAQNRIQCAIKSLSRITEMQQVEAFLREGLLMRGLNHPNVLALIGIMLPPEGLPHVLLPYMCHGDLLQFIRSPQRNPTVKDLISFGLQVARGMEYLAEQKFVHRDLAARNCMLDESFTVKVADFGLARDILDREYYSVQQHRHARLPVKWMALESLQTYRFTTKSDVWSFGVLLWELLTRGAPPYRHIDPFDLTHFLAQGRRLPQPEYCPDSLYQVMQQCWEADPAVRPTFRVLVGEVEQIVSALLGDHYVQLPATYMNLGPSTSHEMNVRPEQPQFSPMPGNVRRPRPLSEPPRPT
Chain of UniProt Q00536 (whole entry, looked up): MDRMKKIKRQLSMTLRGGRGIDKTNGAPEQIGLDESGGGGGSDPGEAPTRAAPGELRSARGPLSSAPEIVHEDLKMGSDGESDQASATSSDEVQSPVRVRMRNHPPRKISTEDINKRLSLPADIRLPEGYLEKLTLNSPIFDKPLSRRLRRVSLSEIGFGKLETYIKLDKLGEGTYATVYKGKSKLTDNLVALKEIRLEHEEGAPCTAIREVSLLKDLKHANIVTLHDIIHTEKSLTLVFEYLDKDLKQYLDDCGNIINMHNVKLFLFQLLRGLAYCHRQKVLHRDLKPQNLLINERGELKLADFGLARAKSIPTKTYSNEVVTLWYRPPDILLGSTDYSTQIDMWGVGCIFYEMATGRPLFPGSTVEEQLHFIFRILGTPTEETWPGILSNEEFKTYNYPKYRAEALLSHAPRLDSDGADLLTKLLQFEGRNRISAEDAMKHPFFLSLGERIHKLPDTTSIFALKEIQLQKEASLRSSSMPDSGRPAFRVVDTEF
Chain of UniProt Q08881 (whole entry, looked up): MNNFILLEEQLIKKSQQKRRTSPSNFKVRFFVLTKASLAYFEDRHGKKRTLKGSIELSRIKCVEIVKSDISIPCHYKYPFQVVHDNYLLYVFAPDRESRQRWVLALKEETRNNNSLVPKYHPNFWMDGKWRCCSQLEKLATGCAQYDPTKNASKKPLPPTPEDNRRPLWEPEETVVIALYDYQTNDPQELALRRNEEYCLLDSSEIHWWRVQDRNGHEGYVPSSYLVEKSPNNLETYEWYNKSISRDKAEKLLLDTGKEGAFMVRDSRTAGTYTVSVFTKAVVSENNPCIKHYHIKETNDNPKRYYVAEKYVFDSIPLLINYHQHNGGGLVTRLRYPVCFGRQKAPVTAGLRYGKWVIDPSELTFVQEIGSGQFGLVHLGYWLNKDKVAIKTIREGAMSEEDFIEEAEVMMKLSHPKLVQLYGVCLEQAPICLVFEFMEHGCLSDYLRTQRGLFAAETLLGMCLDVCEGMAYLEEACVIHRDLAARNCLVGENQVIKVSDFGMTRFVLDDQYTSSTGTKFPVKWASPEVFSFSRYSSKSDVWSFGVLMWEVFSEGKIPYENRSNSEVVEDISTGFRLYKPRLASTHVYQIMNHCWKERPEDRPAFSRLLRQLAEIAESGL

Series 1
Compound: C[C@@H]1CN(c2cc(-c3nn(C)c4ccc(OC5(C)CC5)cc34)ncn2)C[C@H](C)O1
Method: competition with immobilised ligand
Tested at: 1 µM
Cyclin-dependent kinase 16 (CDK16, Homo sapiens, UniProt Q00536); cell-free assay — remaining binding: 87%.
For Interleukin-1 receptor-associated kinase 1 (IRAK1, Homo sapiens, UniProt P51617); cell-free assay: remaining binding read 67%.
Cyclin-dependent kinase 3 (CDK3, Homo sapiens, UniProt Q00526); cell-free assay — remaining binding: 98%.
The remaining binding was 93% (Peripheral plasma membrane protein CASK (CASK, Homo sapiens, UniProt O14936); cell-free assay).
Misshapen-like kinase 1 (MINK1, Homo sapiens, UniProt Q8N4C8); cell-free assay — remaining binding: 66%.
The remaining binding was 96% (Tyrosine-protein kinase ITK/TSK (ITK, Homo sapiens, UniProt Q08881); cell-free assay).
The remaining binding was 78% (Mitogen-activated protein kinase 9 (MAPK9, Homo sapiens, UniProt P45984); cell-free assay).
Tyrosine-protein kinase ABL1, non-phosphorylated (ABL1, Homo sapiens, UniProt P00519, Q252H); cell-free assay — remaining binding: 93%.
Testis-specific serine/threonine-protein kinase 3 (TSSK3, Homo sapiens, UniProt Q96PN8); cell-free assay — remaining binding: 75%.
Mitogen-activated protein kinase 7 (MAPK7, Homo sapiens, UniProt Q13164); cell-free assay — remaining binding: 76%.
For Fibroblast growth factor receptor 3 (FGFR3, Homo sapiens, UniProt P22607, G697C); cell-free assay: remaining binding read 100%.
Tyrosine-protein kinase ABL1, phosphorylated (ABL1, Homo sapiens, UniProt P00519, E255K); binding — remaining binding: 79%.
For Macrophage-stimulating protein receptor (MST1R, Homo sapiens, UniProt Q04912); cell-free assay: remaining binding read 100%.
Serine/threonine-protein kinase TAO2 (TAOK2, Homo sapiens, UniProt Q9UL54); cell-free assay — remaining binding: 80%.
The remaining binding was 100% (Ribosomal protein S6 kinase alpha-1, C-terminal kinase domain (RPS6KA1, Homo sapiens, UniProt Q15418); cell-free assay).
The remaining binding was 100% (Rhodopsin kinase GRK7 (GRK7, Homo sapiens, UniProt Q8WTQ7); cell-free assay).
Mitogen-activated protein kinase kinase kinase 13 (MAP3K13, Homo sapiens, UniProt O43283); cell-free assay — remaining binding: 91%.
For Serine/threonine-protein kinase PAK 3 (PAK3, Homo sapiens, UniProt O75914); cell-free assay: remaining binding read 100%.
5'-AMP-activated protein kinase catalytic subunit alpha-2 (PRKAA2, Homo sapiens, UniProt P54646); cell-free assay — remaining binding: 100%.

Series 2
Compound: COc1ccc(-c2c(Nc3ccccn3)[nH]c3c(C4=CCCCC4)c(-c4ccccc4)nn3c2=O)cc1
Species: human patients
Matrix: plasma
It gave 14.8 ng/mL for median concentration (refers to: S-adenosylmethionine; 100 mg once daily, 6 h).
It gave 80400 ng/mL for median concentration (refers to: methionine; 400 mg once daily, 0 h).
refers to: methionine; 150 mg once daily, 8 h — median concentration: 95900 ng/mL.
For refers to: methionine; 200 mg once daily, 8 h: median concentration read 105000 ng/mL.
It gave 16 ng/mL for median concentration (refers to: S-adenosylmethionine; 100 mg once daily, 8 h).

Series 3
Species: human
Matrix: microsomes or S9
Tested at: 2 µM
Time: 0.5 h
For Cc1cc(C)cc(C(=O)c2c(C(C)C)c(=O)[nH]c(=O)n2Cc2cc(F)nc(F)c2)c1, the remaining compound was 46.7%.
The remaining compound of O=C(CNS(=O)(=O)c1cc(-c2noc(C3CCC3)n2)cs1)N1CCN(c2ccccc2)CC1 is reported as 3.19%.
With CCc1sc(C(=O)Nn2cnnc2)cc1Br the remaining compound was 82.4%.
CCc1n[nH]c(=O)c(-c2nc(C3CCCC3)cs2)c1CC has a remaining compound of 0.999%.
For Cn1c(=O)c2c(n(C)c1=O)n(CC(=O)NC(C)(C)C)c(=O)n2C, the remaining compound was 41.5%.
With Cc1ccsc1C1Nc2ccc3ncccc3c2C2=C1C(=O)CCC2 (centres unmarked) the remaining compound was 45.7%.

Series 4
Cell line: mouse MPNST tumor cells
Method: high-content nuclear imaging
Refers to: cell number
Tested at: 10 µM
Time: 12 h
Notes: mean of 2 replicates
Reference: plate mean
Reading: higher = more cells
N[C@@H](CC(=O)N1CCn2c(nnc2C(F)(F)F)C1)Cc1cc(F)c(F)cc1F has a nuclei count of 1.15 z-score and 3.02 z-score.
C[C@@H](O)CNC(C)(C)CC(=O)N[C@@H]1CCc2ccccc2N(Cc2ccc(-c3ccccc3-c3nn[nH]n3)cc2)C1=O gave a nuclei count of 2.09 z-score.
For CCN(CC)C(=S)SSC(=S)N(CC)CC, the nuclei count was -5.6 z-score.
The nuclei count of CCCCCN(CCCOC)C(=O)C(CCC(=O)O)NC(=O)c1ccc(Cl)c(Cl)c1 (centres unmarked) is reported as 0.951 z-score.
The nuclei count of CCN(CC)CCCCNc1ncc2cc(-c3c(Cl)cccc3Cl)c(NC(=O)NC(C)(C)C)nc2n1 is reported as -1.62 z-score.

Series 5
Target: DNA polymerase theta, ATPase domain (POLQ, Homo sapiens, UniProt O75417)
Chain of UniProt O75417 (whole entry, unmodified, looked up): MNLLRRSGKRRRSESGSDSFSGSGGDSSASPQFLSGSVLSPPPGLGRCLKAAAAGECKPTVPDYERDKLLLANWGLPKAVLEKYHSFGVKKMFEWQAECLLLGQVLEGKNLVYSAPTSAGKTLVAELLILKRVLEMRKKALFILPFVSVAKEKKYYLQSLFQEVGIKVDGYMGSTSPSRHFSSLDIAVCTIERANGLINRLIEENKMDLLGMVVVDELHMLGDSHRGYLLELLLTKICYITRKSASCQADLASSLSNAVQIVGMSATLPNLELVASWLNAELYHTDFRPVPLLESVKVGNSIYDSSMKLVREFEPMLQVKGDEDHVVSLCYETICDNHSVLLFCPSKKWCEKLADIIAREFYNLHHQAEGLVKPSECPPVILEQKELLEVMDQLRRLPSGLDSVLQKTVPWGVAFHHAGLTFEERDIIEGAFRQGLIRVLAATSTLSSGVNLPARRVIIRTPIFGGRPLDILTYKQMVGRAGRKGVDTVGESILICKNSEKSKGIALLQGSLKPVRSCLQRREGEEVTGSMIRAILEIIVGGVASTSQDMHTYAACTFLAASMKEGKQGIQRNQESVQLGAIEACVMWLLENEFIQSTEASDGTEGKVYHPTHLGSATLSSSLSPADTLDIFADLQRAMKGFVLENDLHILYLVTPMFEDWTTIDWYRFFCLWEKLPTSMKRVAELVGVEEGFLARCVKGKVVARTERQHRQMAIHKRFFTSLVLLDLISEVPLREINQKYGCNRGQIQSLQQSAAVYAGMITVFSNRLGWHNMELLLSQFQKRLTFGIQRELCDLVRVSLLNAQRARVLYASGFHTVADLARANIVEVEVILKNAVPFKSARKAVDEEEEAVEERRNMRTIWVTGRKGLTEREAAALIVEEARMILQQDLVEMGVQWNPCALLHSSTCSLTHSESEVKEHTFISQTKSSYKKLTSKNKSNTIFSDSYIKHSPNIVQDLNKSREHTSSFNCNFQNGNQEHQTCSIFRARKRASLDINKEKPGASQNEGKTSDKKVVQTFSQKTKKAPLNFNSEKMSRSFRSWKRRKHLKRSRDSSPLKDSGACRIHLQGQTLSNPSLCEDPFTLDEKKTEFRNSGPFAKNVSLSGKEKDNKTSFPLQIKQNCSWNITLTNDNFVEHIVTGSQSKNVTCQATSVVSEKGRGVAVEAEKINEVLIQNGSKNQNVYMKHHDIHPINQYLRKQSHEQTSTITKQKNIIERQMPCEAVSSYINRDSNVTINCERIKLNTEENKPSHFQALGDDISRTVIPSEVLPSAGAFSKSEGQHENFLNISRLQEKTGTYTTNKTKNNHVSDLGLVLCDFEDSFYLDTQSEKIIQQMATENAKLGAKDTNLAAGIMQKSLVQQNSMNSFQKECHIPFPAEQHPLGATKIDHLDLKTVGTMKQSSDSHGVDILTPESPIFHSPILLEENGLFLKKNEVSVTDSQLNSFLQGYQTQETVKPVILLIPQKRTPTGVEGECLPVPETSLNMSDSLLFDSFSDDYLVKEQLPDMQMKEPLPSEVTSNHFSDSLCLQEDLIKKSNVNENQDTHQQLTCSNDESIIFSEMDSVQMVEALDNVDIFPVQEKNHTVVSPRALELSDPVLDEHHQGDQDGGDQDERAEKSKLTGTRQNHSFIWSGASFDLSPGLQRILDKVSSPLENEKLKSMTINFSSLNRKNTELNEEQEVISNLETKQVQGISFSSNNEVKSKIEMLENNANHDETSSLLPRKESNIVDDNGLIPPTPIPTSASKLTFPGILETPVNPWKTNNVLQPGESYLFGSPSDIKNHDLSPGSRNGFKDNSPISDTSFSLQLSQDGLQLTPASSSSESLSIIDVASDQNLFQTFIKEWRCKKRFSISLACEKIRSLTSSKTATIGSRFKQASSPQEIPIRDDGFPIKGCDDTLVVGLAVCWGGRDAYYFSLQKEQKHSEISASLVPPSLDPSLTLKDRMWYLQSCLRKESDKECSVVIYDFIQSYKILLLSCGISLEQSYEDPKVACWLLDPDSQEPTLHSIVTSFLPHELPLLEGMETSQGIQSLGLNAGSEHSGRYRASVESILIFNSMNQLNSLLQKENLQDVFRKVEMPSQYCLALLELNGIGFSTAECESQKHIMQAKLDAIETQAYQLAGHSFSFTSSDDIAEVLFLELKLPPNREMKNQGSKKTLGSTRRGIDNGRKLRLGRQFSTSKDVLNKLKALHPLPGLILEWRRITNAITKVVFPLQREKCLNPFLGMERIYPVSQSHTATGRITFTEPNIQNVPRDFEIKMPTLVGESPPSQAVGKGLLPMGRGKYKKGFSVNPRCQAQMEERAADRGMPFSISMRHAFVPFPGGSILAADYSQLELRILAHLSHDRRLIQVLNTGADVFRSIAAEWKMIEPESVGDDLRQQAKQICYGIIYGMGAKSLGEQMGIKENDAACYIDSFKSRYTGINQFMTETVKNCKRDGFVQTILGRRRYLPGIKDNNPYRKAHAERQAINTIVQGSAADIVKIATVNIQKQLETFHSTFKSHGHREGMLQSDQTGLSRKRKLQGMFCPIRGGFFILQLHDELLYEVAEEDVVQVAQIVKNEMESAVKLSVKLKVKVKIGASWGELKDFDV
Effect on: enzyme activity
Action: inhibitor
Tested at: 77 µM
Reference: untreated
The remaining activity of O=C1[C@H](CC[C@H](O)c2ccc(F)cc2)[C@@H](c2ccc(O)cc2)N1c1ccc(F)cc1 is reported as 91.9%.
With c1ccc(-c2ccc(C(c3ccccc3)n3ccnc3)cc2)cc1 (centres unmarked) the remaining activity was 91%.
CNC(=O)c1ccc2cc([C@@]3(O)CCn4cncc43)ccc2c1 has a remaining activity of 86.9%.
CN1CCCCC1CCN1c2ccccc2Sc2ccc([S+](C)[O-])cc21 (centres unmarked) has a remaining activity of 101%.
The remaining activity of CCOC(=O)Nc1ccc2c(c1)N(C(=O)CCN1CCOCC1)c1ccccc1S2 is reported as 96.3%.
For CN[C@@H]1[C@@H](O)[C@@H](O[C@@H]2[C@@H](O)[C@H](O[C@H]3OC(CN)=CC[C@H]3N)[C@@H](N)C[C@H]2N)OC[C@]1(C)O, the remaining activity was 101%.

Some of these lines once more (series 3):
For Cn1c(=O)c2c(n(C)c1=O)n(CC(=O)NC(C)(C)C)c(=O)n2C, the remaining compound was 41.5%.
With CCc1sc(C(=O)Nn2cnnc2)cc1Br the remaining compound was 82.4%.
